Published values from different studies.
Compare with care: the assays were run in different laboratories. ± gives the spread as reported.
Chain of UniProt P20813 (whole entry, looked up): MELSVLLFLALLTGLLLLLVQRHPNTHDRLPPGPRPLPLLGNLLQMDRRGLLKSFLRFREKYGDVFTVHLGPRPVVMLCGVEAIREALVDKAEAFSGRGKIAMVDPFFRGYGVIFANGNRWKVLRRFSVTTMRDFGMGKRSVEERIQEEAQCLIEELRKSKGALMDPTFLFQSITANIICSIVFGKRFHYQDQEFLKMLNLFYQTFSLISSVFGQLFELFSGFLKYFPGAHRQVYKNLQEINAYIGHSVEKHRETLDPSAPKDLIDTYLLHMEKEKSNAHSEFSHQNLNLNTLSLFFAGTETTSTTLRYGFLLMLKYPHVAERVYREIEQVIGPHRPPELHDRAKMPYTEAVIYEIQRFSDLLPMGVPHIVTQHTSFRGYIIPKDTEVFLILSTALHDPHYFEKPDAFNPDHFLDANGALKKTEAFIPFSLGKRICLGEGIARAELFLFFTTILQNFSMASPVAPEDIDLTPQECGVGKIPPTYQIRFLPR
Chain of UniProt Q12809 (whole entry, looked up): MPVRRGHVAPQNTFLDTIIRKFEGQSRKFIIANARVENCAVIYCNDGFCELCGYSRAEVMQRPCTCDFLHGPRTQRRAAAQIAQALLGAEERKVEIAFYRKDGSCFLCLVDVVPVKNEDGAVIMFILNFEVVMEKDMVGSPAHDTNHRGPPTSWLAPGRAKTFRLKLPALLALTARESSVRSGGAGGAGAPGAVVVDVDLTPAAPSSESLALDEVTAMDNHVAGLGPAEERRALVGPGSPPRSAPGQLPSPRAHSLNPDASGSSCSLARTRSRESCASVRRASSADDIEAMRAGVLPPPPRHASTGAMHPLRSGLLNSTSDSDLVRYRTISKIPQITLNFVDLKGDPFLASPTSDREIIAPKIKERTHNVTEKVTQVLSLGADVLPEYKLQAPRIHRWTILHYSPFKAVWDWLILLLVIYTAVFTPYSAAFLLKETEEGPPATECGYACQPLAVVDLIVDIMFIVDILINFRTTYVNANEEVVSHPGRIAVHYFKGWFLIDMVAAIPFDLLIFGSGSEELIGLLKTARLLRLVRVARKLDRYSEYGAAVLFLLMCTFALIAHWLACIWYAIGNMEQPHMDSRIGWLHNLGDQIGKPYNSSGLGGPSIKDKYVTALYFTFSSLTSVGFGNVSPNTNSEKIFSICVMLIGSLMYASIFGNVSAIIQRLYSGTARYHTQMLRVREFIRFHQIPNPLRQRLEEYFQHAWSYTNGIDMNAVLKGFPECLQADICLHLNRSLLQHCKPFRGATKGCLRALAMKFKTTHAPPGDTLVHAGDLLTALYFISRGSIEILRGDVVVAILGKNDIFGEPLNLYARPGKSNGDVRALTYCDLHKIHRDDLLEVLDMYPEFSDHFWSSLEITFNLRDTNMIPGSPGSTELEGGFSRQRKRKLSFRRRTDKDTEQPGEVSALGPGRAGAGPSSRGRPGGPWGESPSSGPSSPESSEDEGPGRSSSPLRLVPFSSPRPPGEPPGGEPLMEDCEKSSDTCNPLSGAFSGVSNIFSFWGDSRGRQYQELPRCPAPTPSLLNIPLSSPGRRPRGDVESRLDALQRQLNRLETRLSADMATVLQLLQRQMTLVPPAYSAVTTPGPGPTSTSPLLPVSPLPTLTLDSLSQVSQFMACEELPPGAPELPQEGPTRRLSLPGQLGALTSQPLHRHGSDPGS
Chain of UniProt P11980 (whole entry, looked up): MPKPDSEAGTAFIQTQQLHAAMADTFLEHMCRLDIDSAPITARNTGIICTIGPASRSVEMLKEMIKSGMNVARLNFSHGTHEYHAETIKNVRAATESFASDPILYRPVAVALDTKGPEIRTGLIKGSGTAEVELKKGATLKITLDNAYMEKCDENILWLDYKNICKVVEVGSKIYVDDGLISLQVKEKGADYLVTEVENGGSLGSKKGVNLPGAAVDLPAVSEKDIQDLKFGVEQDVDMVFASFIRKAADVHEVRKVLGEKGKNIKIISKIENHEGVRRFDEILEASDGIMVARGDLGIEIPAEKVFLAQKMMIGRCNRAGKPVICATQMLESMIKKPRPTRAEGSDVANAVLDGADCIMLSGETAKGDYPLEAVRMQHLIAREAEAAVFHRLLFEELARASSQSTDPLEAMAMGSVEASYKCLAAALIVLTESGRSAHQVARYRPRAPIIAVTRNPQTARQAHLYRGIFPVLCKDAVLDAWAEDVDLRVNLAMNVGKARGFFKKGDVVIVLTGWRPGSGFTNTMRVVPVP
Chain of UniProt Q9CPV9 (whole entry, looked up): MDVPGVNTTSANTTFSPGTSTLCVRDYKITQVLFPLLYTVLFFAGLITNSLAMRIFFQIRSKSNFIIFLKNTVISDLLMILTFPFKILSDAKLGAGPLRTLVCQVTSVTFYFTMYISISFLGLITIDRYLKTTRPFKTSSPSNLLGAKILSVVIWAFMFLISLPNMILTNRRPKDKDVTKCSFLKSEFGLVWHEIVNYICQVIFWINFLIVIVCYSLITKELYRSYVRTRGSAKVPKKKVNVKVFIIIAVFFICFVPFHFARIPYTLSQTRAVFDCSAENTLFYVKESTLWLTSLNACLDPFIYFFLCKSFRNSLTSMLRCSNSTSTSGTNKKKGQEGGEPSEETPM

`COc1cc2c(CCNC(C)=O)c[nH]c2cc1OS(=O)(=O)O` gave a plasma concentration of 21.9 ± 10.7 ng/mL (Abcg2 (mouse); FVB/N Abcg2-/- male mice; oral, 10 mg/kg melatonin, 1 h).
For `[64Cu+2].c1ccc(CNCc2ccc(CN3CCCN4CCNCCCN(CC4)CC3)cc2)nc1`, the tissue uptake was 1.97 ± 0.09 %ID/g (CXCR4; NOD/SCID mouse, U87 and U87-stb-CXCR4 xenografts, heart; iv, 240 min, ex vivo).
With `CNC(=O)c1ccc(N2CCN(Cc3ccc4nc(C)c(=O)[nH]c4c3F)CC2)c([18F])n1` the radioactivity uptake was 1.05 SUV (Poly [ADP-ribose] polymerase 1 (Macaca mulatta, UniProt H9FQ77); male rhesus monkey, hippocampus; intravenous, dose not given, baseline PET).
`N#Cc1cc(C(=O)OCC[18F])c(C(F)(F)F)nc1N1CCN(C(=O)Cc2ccccc2)CC1` — result for “peak brain SUV”: 0.98 ± 0.19 (P2Y purinoceptor 12 (P2ry12, Mus musculus, UniProt Q9CPV9); PET; mouse aged 60 weeks; 11.1 MBq).
For `Cc1cccc(Cn2ncc3c4cc(F)c(CN(C)C)cc4n(C)c3c2=O)n1`, “half-life of fast phase” read 60 h (Pyruvate kinase PKM (Rattus norvegicus, UniProt P11980); enzyme activity, activator; rat, retina; intravitreal, 10 µM vitreous concentration).
For `C=CC(=O)Nc1cc(Nc2nccc(-c3cn(C)c4ccccc34)n2)c(OCC(F)(F)F)nc1N(C)CCN(C)C`, “activity vs control” read 97.8% (Cytochrome P450 2B6 (CYP2B6, Homo sapiens, UniProt P20813); enzyme activity, inhibitor; human, liver microsomes; 0.1 µM).
`COc1cc(-c2nc3ccccc3s2)cc(CN(Cc2ccccn2)Cc2ccccn2)c1O` has a pCu of 10.4 (Cu2+; 50 µM, pH 7.4, 1:1 metal:ligand).
`[64Cu+2].c1cnc(CNCc2ccc(CN3CCCN4CCNCCCN(CC4)CC3)cc2)nc1` has a tissue uptake of 61.5 ± 2.75 %ID/g (CXCR4; NOD/SCID mouse, U87 and U87-stb-CXCR4 xenografts, liver; iv, 90 min, no blocking dose, ex vivo).
`COc1cc(-c2nc3ccccc3s2)cc(CN(C)Cc2ccccn2)c1O` has a log K of 16.5 (Cu2+; UV-vis pH titration; M2+ + L- = [ML]+ complex).
For `CCC(=O)N(C)c1ccc(Cl)c(Cl)c1`, the inhibition was 2.03% (Voltage-gated inwardly rectifying potassium channel KCNH2 (KCNH2, Homo sapiens, UniProt Q12809); ion current, inhibitor, patch clamp; HEK293; 5 µM).

Some of these lines once more:
`N#Cc1cc(C(=O)OCC[18F])c(C(F)(F)F)nc1N1CCN(C(=O)Cc2ccccc2)CC1` — result for “peak brain SUV”: 0.98 ± 0.19 (P2Y purinoceptor 12 (P2ry12, Mus musculus, UniProt Q9CPV9); PET; mouse aged 60 weeks; 11.1 MBq).
